Published values of several laboratories.
Each line is one published result; not all experiments were run side by side. ± marks the error that the study gave.

Structure (SMILES) | tested on | test | test system | setting | scale | quantity | value
Cc1ncsc1-c1ccc(C(C)NC(=O)C2CC(O)CN2C(=O)C(NC(=O)CCCCCCCCCCN2CCCC(Nc3ncc(Cl)c(Nc4ccccc4S(=O)(=O)C(C)C)n3)C2)C(C)(C)C)cc1 (stereo not shown) | 22Rv1 | RNA-seq, measured: ZKSCAN3 mRNA | – | concentration not given | reference: DMSO | log2 fold change | -1.96
COc1cc(O)ccc1CCC(c1ccc(O)cc1)c1cc2c(c(C)c1O)OC(c1ccc(O)cc1)CC2 (mixture of isomers) | – | – | human blood | 3 µM, together with: A23187 | – | EPA level | 69600 ± 18100 pg/mL
C[n+]1cc(/C=N/NC(=O)c2ccc3ccc(C(=O)N/N=C/c4cc5ccccc5[n+](C)c4)nc3n2)cc2ccccc21 | myc22 MYC G4-DNA parallel | FRET melting | – | 1 µM, K1 buffer, DNA 0.2 µM, together with: ds26 10 µM | – | ΔTm | 15.5 ± 0.4 °C
C=CC(=O)Nc1cccc(Cn2ncc3cnc(Nc4cnn(CCOC)c4)nc32)c1 | CDK4 human | binding, KINOMEscan | – | 100 nM | lower = stronger binding | percent of control | 97%
CC[n+]1cccc2cc(/C=N/NC(=O)c3cccc(C(=O)N/N=C/c4ccc5c(ccc[n+]5CC)c4)c3)ccc21 | myc22 MYC G4-DNA parallel | FRET melting | – | 1 µM, K1 buffer, DNA 0.2 µM | – | ΔTm | 6.4 ± 0.3 °C
CNS(=O)(=O)Nc1nccc(Cc2c(C)c3ccc(Oc4ncccc4F)cc3oc2=O)c1F | NCI-H2106 | cell viability, CellTiter-Glo | – | 7 days | – | IC50 | > 1000 nM
C=C(NC(=O)c1csc(-c2nc3c(cc2O)-c2nc(cs2)C(=O)NC(C(C)O)C(=O)NC(=C(C)OC)c2nc(cs2)C(=O)NC2c4nc(cs4)C(=O)NC(COC(=O)c4c5c6c(cccc6n4O)COC(=O)C(OC4CC(C)(O)C(N(C)C)C(C)O4)C2OC5)c2nc-3cs2)n1)C(N)=O (stereo not shown) | Streptococcus pneumoniae | – | -4, immunocompromised mice, lung | 16 mg/kg/day once daily, 24 h post-dose | – | lung bacterial load | 4.38 log10 CFU/lung
COC1CN([C@H]2CC[C@H]([C@@]3(C)Oc4c(Cl)cc(C(=O)NCc5c(SC)cc(C)[nH]c5=O)c(C)c4O3)CC2)C1 | – | RNA-seq, measured: CACNA1E | human, whole blood | dose not given, 24 h | reference: pretreatment baseline | log2 fold change | 2.26
Nc1ncc(-c2cc(-c3cnn(CC(F)(F)F)c3)ncc2F)nc1C(=O)NC1CNCC(F)C1 (stereo not shown) | IGF1R | KINOMEscan | – | 1 µM | reference: DMSO control | remaining binding | 62%
CN1CCCNC(=O)c2cccc(c2)C(=O)NCCCN(C)CCCNc2cccc3c2C(=O)c2cccc(c2C3=O)NCCC1 | SAS | RNA-Seq, measured: ATP6V0A1 mRNA | – | 1 µM, 6 h | reference: untreated cells | log2 fold change | -0.656
